Measurements collected from several papers.
Compare with care: the assays were run in different laboratories. ± gives the spread as reported.
Cell line: NCI-H460

SMILES	observed	method	time	setting	added	IC50
[NH2][Pt]1([NH2])([Cl])([O]C(=O)C(F)(F)F)[O]C(=O)C2(CC(=O)C2)C(=O)[O]1	cell growth or viability	MTT	–	–	–	5.46 µM
CC(=O)O[C@@H]1CC[C@@]2(C)[C@@H](CC[C@]3(C)[C@@H]2C(=O)C=C2[C@@H]4[C@@H](C)[C@H](C)CC[C@]4(C)CC[C@]23C)[C@@]1(C)C(=O)NCCNC(=O)OC(C)(C)C	cell growth or viability	MTT	48 h	–	–	> 30 µM
CN1CCN(c2ccc(Nc3ncc(F)c(-c4cn(C5CCCCC5)nn4)n3)cc2)CC1	cell growth or viability	SRB	72 h	–	–	7.35 µM
CCC1=C(CC)C2=[N+]3C1=Cc1c(CC)c(CC)c4[n]1[Ir-3]31([c]3n(C(C)C)cc[n+]3C(C)C)([c]3n(C(C)C)cc[n+]3C(C)C)[n]3c(c(CC)c(CC)c3=CC3=[N+]1C(=C4)C(CC)=C3CC)=C2.F[P-](F)(F)(F)(F)F	cytotoxicity	–	1 h	–	visible light 2.8 mW/cm2	0.006 ± 0.002 µM
C[C@H]1[C@H](C)CC[C@]2(C)CC[C@]3(C)C(=CC(=O)[C@@H]4[C@@]5(C)CC[C@@H](O)[C@](C)(C(=O)NCCNC(=O)C6CCCCC6)[C@@H]5CC[C@]43C)[C@H]12	cell growth or viability	MTT	48 h	–	–	18.1 µM
Clc1ccc2[nH]c(-c3cc4cc5c(cc4nc3Cl)OCO5)nc2c1	cell growth or viability	MTT	48 h	–	–	> 100 µM
C=C1C2C(OC(=O)c3ccccc3)C3C4N(C)C5C(O)C3(C1O)C(C2OC(C)=O)C41C(OC(C)=O)C(OC(=O)c2ccccc2)CC(C)(C=O)C51 (stereo not shown)	cell growth or viability	MTT	–	–	–	26.5 µM
CC(C)Cn1cc(-c2ccnc(Nc3ccc(N4CCN(CCCCCCC(=O)NO)CC4)cc3)n2)nn1	cell growth or viability	SRB	72 h	–	–	4.86 µM
C[C@H]1[C@H](C)CC[C@]2(C)CC[C@]3(C)C(=CC(=O)[C@@H]4[C@@]5(C)CC[C@@H](O)[C@](C)(C(=O)NCCNC(=O)C6CC6)[C@@H]5CC[C@]43C)[C@H]12	cell growth or viability	MTT	48 h	–	–	28.1 µM
O=C(NCCCCCNc1n[n+]([O-])c2ccccc2[n+]1[O-])C(F)(F)F	cytotoxicity	MTT	24 h	normoxia 20% O2	–	70.8 ± 27.3 µM
COc1ccc(CN2C(=O)C(=O)c3cc(NC(C)=O)ccc32)cc1	cell growth or viability	MTT	48 h	–	–	28.4 µM
Cc1ccc2nc(Cl)c(-c3nc4cc(Br)ccc4[nH]3)cc2c1	cell growth or viability	MTT	48 h	–	–	> 100 µM
Nc1ccccc1NC(=O)c1ccc(Nc2nccc(-c3cn(C4CCCC4)nn3)n2)cc1	cell growth or viability	SRB	72 h	–	–	4.1 µM
CC(=O)O[C@@H]1CC[C@@]2(C)[C@@H](CC[C@]3(C)[C@@H]2C(=O)C=C2[C@@H]4[C@@H](C)[C@H](C)CC[C@]4(C)CC[C@]23C)[C@@]1(C)C(=O)NCCNC(=O)c1ccc(C)cc1	cell growth or viability	MTT	48 h	–	–	14.1 µM
COCC12CN(C)C3C4C(OC)C1C3(C(OC)CC2O)C1(O)CC2(O)C(OC)C(O)C4(O)C1C2OC(=O)c1ccccc1 (stereo not shown)	cell growth or viability	MTT	–	–	–	13.5 µM
CCNC(=O)OCc1c(COC(=O)NCC)c(-c2ccc(OC)cc2)n2c1Cc1ccccc1-2	cell growth or viability	resazurin	72 h	–	–	17.5 µM
N#Cc1c(-c2ccc(Cl)cc2)cc(-c2cccc3ccccc23)n2c(Cc3ccccc3)nnc12	cell growth or viability	MTT	72 h	–	–	0.769 µM
CCC1=C(CC)C2=[N+]3C1=Cc1c(CC)c(CC)c4[n]1[Ir-3]31([Cl])([C]#[O+])[n]3c(c(CC)c(CC)c3=CC3=[N+]1C(=C4)C(CC)=C3CC)=C2	cell growth or viability	–	–	dark	–	> 50 µM
Fc1ccc2[nH]c(-c3cc4ccccc4nc3Cl)nc2c1	cell growth or viability	MTT	48 h	–	–	> 100 µM

SMILES	observed	method	time	setting	added	IC50
CC(=O)O[C@@H]1CC[C@@]2(C)[C@@H](CC[C@]3(C)[C@@H]2C(=O)C=C2[C@@H]4[C@@H](C)[C@H](C)CC[C@]4(C)CC[C@]23C)[C@@]1(C)C(=O)NCCNC(=O)CCCCCBr	cell growth or viability	MTT	48 h	–	–	9.31 µM
Cc1ccc2nc(Cl)c(-c3nc4ccccc4[nH]3)cc2c1	cell growth or viability	MTT	48 h	–	–	> 100 µM
O=C(O)Cc1ccccc1Nc1c(Cl)cccc1Cl.O=C(O)Cc1ccccc1Nc1c(Cl)cccc1Cl.c1cnc2c(c1)ccc1cccnc12.c1cnc2c(c1)ccc1cccnc12	cell viability	MTT	48 h	–	–	3.87 ± 0.04 µM
COCC12CCC(OC)C34C5CC6(O)C(O)C5C(O)(C(O)C6OC)C(CC13)C4N(C)C2 (stereo not shown)	cell growth or viability	MTT	–	–	–	22.8 µM
O=S(=O)([O-])[O-].[Cu+2].c1ccc(-c2nnc(-c3ccc4c(c3)OCO4)[nH]2)nc1	cell growth or viability	MTT	24 h	–	–	8.59 µM
CC(=O)O[C@@H]1CC[C@@]2(C)[C@@H](CC[C@]3(C)[C@@H]2C(=O)C=C2[C@@H]4[C@@H](C)[C@H](C)CC[C@]4(C)CC[C@]23C)[C@@]1(C)C(=O)NCCNC(=O)C1CC1	cell growth or viability	MTT	48 h	–	–	7.25 µM
Cc1cc2nc(-c3cc4cc5c(cc4nc3Cl)OCO5)[nH]c2cc1C	cell growth or viability	MTT	48 h	–	–	> 100 µM
O=C(NCCCCCCCCNc1n[n+]([O-])c2ccccc2[n+]1[O-])C(F)(F)F	cytotoxicity	MTT	24 h	normoxia 20% O2	–	91 ± 50.9 µM
O=c1[nH]c2ccccc2nc1/C=C/c1ccc2ccccc2n1	cell growth or viability	MTT	72 h	–	–	> 50 µM
CCCCCCC(=O)NCCNC(=O)[C@@]1(C)[C@H](O)CC[C@@]2(C)[C@H]1CC[C@]1(C)[C@@H]2C(=O)C=C2[C@@H]3[C@@H](C)[C@H](C)CC[C@]3(C)CC[C@]21C	cell growth or viability	MTT	48 h	–	–	13.3 µM
N#Cc1c(-c2cccs2)cc(-c2cccc3ccccc23)nc1Nc1ccc(Nc2nc(-c3cccc4ccccc34)cc(-c3cccs3)c2C#N)cc1	cell growth or viability	MTT	72 h	–	–	0.066 µM
COc1ccc2nc(Cl)c(-c3nc4cc(Cl)c(Cl)cc4[nH]3)cc2c1	cell growth or viability	MTT	48 h	–	–	21.1 µM
O=C(NCCCNc1n[n+]([O-])c2ccccc2[n+]1[O-])C(F)(F)F	cytotoxicity	MTT	24 h	normoxia 20% O2	–	89.8 ± 9.8 µM
COc1ccc2nc(Cl)c(-c3nc4cc(Cl)ccc4[nH]3)cc2c1	cell growth or viability	MTT	48 h	–	–	23.8 µM
CCC1=C(CC)C2=[N+]3C1=Cc1c(CC)c(CC)c4[n]1[Ir-3]31([C]#[N+]c3ccc(OC)cc3)([C]#[N+]c3ccc(OC)cc3)[n]3c(c(CC)c(CC)c3=CC3=[N+]1C(=C4)C(CC)=C3CC)=C2.F[B-](F)(F)F	cytotoxicity	–	1 h	–	visible light 2.8 mW/cm2	0.12 ± 0.02 µM
NS(=O)(=O)c1ccc(Nc2nccc(-c3cn(C4CCCCC4)nn3)n2)cc1	cell growth or viability	SRB	72 h	–	–	4.62 µM
Cc1cc2nc(-c3cc4ccccc4nc3Cl)[nH]c2cc1C	cell growth or viability	MTT	48 h	–	–	14 µM
CC(=O)O[C@@H]1CC[C@@]2(C)[C@@H](CC[C@]3(C)[C@@H]2C(=O)C=C2[C@@H]4[C@@H](C)[C@H](C)CC[C@]4(C)CC[C@]23C)[C@@]1(C)C(=O)NCCNC(=O)CCCCCCCCCCBr	cell growth or viability	MTT	48 h	–	–	> 30 µM

Repeated from above:
SMILES	observed	method	time	setting	added	IC50
COCC12CN(C)C3C4C(OC)C1C3(C(OC)CC2O)C1(O)CC2(O)C(OC)C(O)C4(O)C1C2OC(=O)c1ccccc1 (stereo not shown)	cell growth or viability	MTT	–	–	–	13.5 µM
N#Cc1c(-c2ccc(Cl)cc2)cc(-c2cccc3ccccc23)n2c(Cc3ccccc3)nnc12	cell growth or viability	MTT	72 h	–	–	0.769 µM
Nc1ccccc1NC(=O)c1ccc(Nc2nccc(-c3cn(C4CCCC4)nn3)n2)cc1	cell growth or viability	SRB	72 h	–	–	4.1 µM
Fc1ccc2[nH]c(-c3cc4ccccc4nc3Cl)nc2c1	cell growth or viability	MTT	48 h	–	–	> 100 µM
